Assay results collected from several papers.
Protocols differ between the studies behind these lines. Values joined by “and” are separate records of one study, mostly repeats; a detail may differ. Numbers after ± are the reported error.
Chain of UniProt P20813 (whole entry, looked up): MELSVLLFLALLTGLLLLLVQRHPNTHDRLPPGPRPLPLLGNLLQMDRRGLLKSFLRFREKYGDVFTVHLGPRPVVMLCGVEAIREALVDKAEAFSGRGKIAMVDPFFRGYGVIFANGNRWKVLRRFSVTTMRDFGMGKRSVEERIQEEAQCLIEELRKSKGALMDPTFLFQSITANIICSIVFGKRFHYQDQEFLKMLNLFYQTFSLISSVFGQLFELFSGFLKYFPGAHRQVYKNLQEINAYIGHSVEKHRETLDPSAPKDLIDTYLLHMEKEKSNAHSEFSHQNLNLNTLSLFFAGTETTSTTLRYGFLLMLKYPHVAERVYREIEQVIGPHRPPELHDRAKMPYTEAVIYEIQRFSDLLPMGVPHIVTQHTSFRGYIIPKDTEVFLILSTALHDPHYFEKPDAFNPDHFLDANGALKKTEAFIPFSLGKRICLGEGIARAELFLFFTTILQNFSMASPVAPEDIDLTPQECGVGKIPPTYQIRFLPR

SMILES | target or system | test | system | setting | how to read | endpoint | value
COC1OC(C)C(OS(=O)(=O)O)C(OC2OC(C)C(OS(=O)(=O)O)C(OC3OC(C)C(OS(=O)(=O)O)C(OS(=O)(=O)O)C3O)C2O)C1O (stereo not shown) |  |  | human plasma | 128 µg/mL |  | thrombin time | 9.7 ± 0.8 s
Cc1[nH]nc2c1N=C(c1ccccc1Cl)c1cnc(N3CCOCC3)cc1N2 |  |  | mouse sample C TNBC PDX, LAR subtype | oral, 15 mg/kg, 5 days per week |  | tumour growth inhibition | 98%
C=C(NC(=O)c1csc(-c2nc3c(cc2O)-c2nc(cs2)C(=O)NC(C(C)O)C(=O)NC(=C(C)OC)c2nc(cs2)C(=O)NC2c4nc(cs4)C(=O)NC(COC(=O)c4c5c6c(cccc6n4O)COC(=O)C(OC4CC(C)(O)C(N(C)C)C(C)O4)C2OC5)c2nc-3cs2)n1)C(N)=O (stereo not shown) |  |  | ICR mice, Streptococcus pneumoniae ATCC 49169 infected, immunocompromised, blood | intravenous, 8 mg/kg/day once daily |  | Cmax | 736 ng/mL
CN1CCC[C@]1(C)/C=C/S(=O)(=O)NC(=O)Nc1c2c(cc3c1CCC3)CCC2 |  |  | human, whole blood ex vivo | 50 mg twice daily, day 19, 108 h, multiple ascending dose, with: LPS and ATP |  | IL-18 inhibition | 62.3%
CN(CCNCc1cc(C(=O)[O-])ccc1[O-])CCNCc1cc(C(=O)[O-])ccc1[O-].[Cl-].[Fe+3].[K+].[K+] |  | T1-weighted MRI 4.7 T | BALB/c mice | 0.10 mmol/kg |  | vena cava signal enhancement | ~50%
COc1ccc(C(=O)CCc2cc(C(CCc3ccc(O)cc3OC)c3ccc(O)cc3)c(O)cc2OC)cc1 (racemic) |  |  | human blood | 0.3 µM, with: A23187 |  | PGE2 level | 35 ± 8 pg/mL
COc1cc2c(NC3CCN(C(C)C)CC3)cc(N3CCOCC3)nc2cc1OCCCN1CCCC1 |  | TMT quantitative proteomics, refers to: GOT1 (cytoplasmic) | FAD AD model mice, hippocampus | dose not given |  | normalised protein abundance | -0.0802 and -0.0694 and -0.0795 and -0.0878 and -0.0669 and -0.0671 and -0.0719 and -0.0871
COC1OC(C)C(OS(=O)(=O)O)C(OC2OC(C)C(OS(=O)(=O)O)C(OC3OC(C)C(OS(=O)(=O)O)C(OC4OC(C)C(OS(=O)(=O)O)C(OS(=O)(=O)O)C4O)C3O)C2O)C1O (stereo not shown) |  |  | human plasma | 128 µg/mL | baseline: control | thrombin time prolongation | 0.9 fold
COC1CN([C@H]2CC[C@H]([C@@]3(C)Oc4c(Cl)cc(C(=O)NCc5c(SC)cc(C)[nH]c5=O)c(C)c4O3)CC2)C1 |  | RNA-seq, refers to: SLC6A9 mouse homolog | mouse, HT-1376 xenograft, whole blood | dose not given | baseline: vehicle | log2 fold change | 1.55
c1ccc(-c2n[nH]cc2-c2ccnc3ccccc23)nc1 | BUB1 (Candida albicans) | kinase binding, MIB/MS competition | Candida albicans lysate | 10 µM | baseline: DMSO | log2 fold change | -0.27
COC1OC(C)C(OC2OC(C)C(OS(=O)(=O)O)C(OC3OC(C)C(OC4OC(C)C(OS(=O)(=O)O)C(OC5OC(C)C(OC6OC(C)C(OS(=O)(=O)O)C(OC7OC(C)C(OC8OC(C)C(OS(=O)(=O)O)C(OS(=O)(=O)O)C8O)C(OS(=O)(=O)O)C7O)C6O)C(OS(=O)(=O)O)C5O)C4O)C(OS(=O)(=O)O)C3O)C2O)C(OS(=O)(=O)O)C1O (stereo not shown) |  |  | human plasma | 128 µg/mL |  | thrombin time | 10.8 ± 0.8 s
O=C(N[C@@H](Cc1ccc(OCCCCC2CCNCC2)cc1)C(=O)O)c1nc2ccccc2o1.O=C(O)C(F)(F)F |  | platelet aggregation, inhibitor, impedance aggregometry | human, whole blood, 1:1 saline | 3000 nM, 6 min, 37 °C, with: ADP 20 µM | higher = more aggregation | aggregation impedance AUC | 0 a.u.
COC1OC(C)C(O)C(OC2OC(C)C(O)C(OC3OC(C)C(O)C(OC4OC(C)C(O)C(OC5OC(C)C(O)C(OC6OC(C)C(O)C(OC7OC(C)C(O)C(OC8OC(C)C(O)C(OC9OC(C)C(O)C(OC%10OC(C)C(O)C(OC%11OC(C)C(O)C(OC%12OC(C)C(O)C(OS(=O)(=O)O)C%12OS(=O)(=O)O)C%11OS(=O)(=O)O)C%10OS(=O)(=O)O)C9OS(=O)(=O)O)C8OS(=O)(=O)O)C7OS(=O)(=O)O)C6OS(=O)(=O)O)C5OS(=O)(=O)O)C4OS(=O)(=O)O)C3OS(=O)(=O)O)C2OS(=O)(=O)O)C1OS(=O)(=O)O (stereo not shown) |  |  | human plasma | 128 µg/mL |  | thrombin time | 10.5 ± 0.3 s
CNS(=O)(=O)Nc1nccc(Cc2c(C)c3ccc(Oc4ncccc4F)cc3oc2=O)c1F | KARPAS-422 | cell viability |  | 7 days |  | IC50 | > 1 µM
Cc1ncsc1-c1ccc(C(C)NC(=O)C2CC(O)CN2C(=O)C(NC(=O)CCCCCCCCCCN2CCCC(Nc3ncc(Cl)c(Nc4ccccc4S(=O)(=O)C(C)C)n3)C2)C(C)(C)C)cc1 (stereo not shown) | 22Rv1 | RNA-seq, refers to: ZC2HC1C mRNA |  | concentration not given | baseline: DMSO | log2 fold change | -2.06
CC[C@H](C)[C@H](NC(=O)[C@H](Cc1ccc(O)cc1)NC(=O)[C@H](CCC(=O)O)NC(=O)CNC(=O)[C@H](CCC(=O)O)NC(=O)[C@H](CCCCN)NC(=O)[C@H](CCCCN)NC(=O)[C@H](CC(=O)O)NC(=O)[C@H](Cc1c[nH]cn1)NC(=O)[C@H](Cc1c[nH]cn1)NC(=O)[C@H](Cc1c[nH]cn1)NC(=O)[C@H](Cc1c[nH]cn1)NC(=O)[C@H](Cc1c[nH]cn1)NC(=O)[C@H](Cc1c[nH]cn1)NC(=O)[C@H](Cc1c[nH]cn1)NC(=O)[C@H](Cc1c[nH]cn1)NC(=O)[C@H](Cc1c[nH]cn1)NC(=O)[C@@H](N)Cc1c[nH]cn1)C(=O)N[C@@H](CCCCN)C(=O)N[C@@H](CC(C)C)C(=O)N[C@@H](CCCCN)C(=O)N[C@H](C(=O)N[C@H](C(=O)NCC(=O)N[C@@H](CCC(N)=O)C(=O)N[C@@H](CC(=O)O)C(=O)N[C@@H](CO)C(=O)N[C@@H](CO)C(=O)N[C@@H](CCC(=O)O)C(=O)N[C@H](C(=O)N[C@@H](Cc1c[nH]cn1)C(=O)N[C@@H](Cc1ccccc1)C(=O)N[C@@H](CCCCN)C(=O)N[C@H](C(=O)N[C@@H](CCCCN)C(=O)N[C@@H](CCSC)C(=O)N[C@H](C(=O)N[C@H](C(=O)N[C@@H](Cc1c[nH]cn1)C(=O)N[C@@H](CC(C)C)C(=O)N[C@@H](CCCCN)C(=O)N[C@@H](CCCCN)C(=O)N[C@@H](CC(C)C)C(=O)N[C@@H](CCCCN)C(=O)N[C@@H](CCC(=O)O)C(=O)N[C@@H](CO)C(=O)N[C@@H](Cc1ccc(O)cc1)C(=O)N[C@@H](CS)C(=O)N[C@@H](CCC(N)=O)C(=O)N[C@@H](CCCNC(=N)N)C(=O)N[C@@H](CCC(N)=O)C(=O)O)[C@@H](C)O)[C@@H](C)O)C(C)C)[C@@H](C)CC)[C@@H](C)CC)C(C)C |  |  | Drosophila α-synuclein A53T transgenic | 120 µM, 1 day post eclosion, unit not given | baseline: untreated | climbing mean difference | 2

SMILES | target or system | test | system | setting | how to read | endpoint | value
O=CCNCCOn1c(=O)n(OCCNCCO)c(=O)n(OCCNCCOn2c(=O)n(OCCNCCO)c(=O)n(OCCNCCO)c2=O)c1=O |  | DPPH scavenging |  | 125 µg/mL |  | inhibition | 14.9%
CCN(CC)CC#CCNc1ccnc2cc(Cl)ccc12 | Salmonella typhimurium | mini-Ames test | TA97a | 500.0 µg/well, with rat liver S9 |  | revertants | 0 revertants/well
COc1ccc(NC(=O)c2ccc3[nH]c(-c4ccc(N(C)C)cc4)nc3c2)cn1 |  |  | Lewis lung carcinoma, mice, syngeneic graft, subcutaneous | intraperitoneal, 50 mg/kg daily, day 0 |  | tumour volume | 164 mm3 and 141 mm3 and 275 mm3 and 135 mm3 and 182 mm3
COc1ccccc1-c1ccncc1C(=O)Nc1nnc(OCc2ccc(Cl)cc2)s1 | PEO1 BRCA2-mutant ovarian cancer |  |  | 1.00 µM, with: olaparib 2 µM |  | colony survival | 0%
Nc1ncc(-c2cc(-c3cnn(CC(F)(F)F)c3)ncc2F)nc1C(=O)NC1CNCC(F)C1 (stereo not shown) | IKK-epsilon | KINOMEscan competition binding |  | 1 µM | baseline: DMSO control | remaining binding | 100%
Nc1nc2cc(CC[C@H]3C[C@@H](n4ccc5c(N)ncnc54)[C@H](O)[C@@H]3O)ccc2cc1Br |  |  | NCI-H441 xenograft, mouse | 10.0 mg/kg/day, day 38 |  | tumour volume | 49 ± 5 mm3
CC(=O)[O-].O.O.[O-]c1ccc(Br)cc1C=NCCN1CCOCC1.[Zn+2] |  | hydroxyl radical scavenging |  | 160 µM |  | inhibition | 37.5%
CC(C)OCCOCc1ccc(OCC(O)CN(N=O)C(C)C)cc1 (stereo not shown) | Salmonella typhimurium | Ames test | TA100 | 5 µg/plate, 30 % rat S9 | baseline: solvent control | revertant fold increase | 0.8 fold
COc1cc(O)ccc1CCC(c1ccc(O)cc1)c1cc2c(c(C)c1O)OC(c1ccc(O)cc1)CC2 (mixture of isomers) |  |  | human blood | 3 µM, with: A23187 |  | 5-HETE level | 2520 ± 613 pg/mL
COC1OC(C)C(OS(=O)(=O)O)C(OC2OC(C)C(OS(=O)(=O)O)C(OC3OC(C)C(OS(=O)(=O)O)C(OC4OC(C)C(OS(=O)(=O)O)C(OC5OC(C)C(OS(=O)(=O)O)C(OC6OC(C)C(OS(=O)(=O)O)C(OS(=O)(=O)O)C6O)C5O)C4O)C3O)C2O)C1O (stereo not shown) |  |  | human plasma | 128 µg/mL | baseline: control | thrombin time prolongation | 1 fold
CNC(=O)C1CCCN(C(=O)C2CC3CCC2N3C(=O)[C@@H]2C[C@@H](O)CN2C(=O)NCc2cccc(Cl)c2F)C1 (mixture of isomers) | Cytochrome P450 2B6 (CYP2B6, Homo sapiens, UniProt P20813) | preincubation without NADPH | human | 0.0686 µM | baseline: negative control | remaining activity | 102% and 104% and 107%
COC1OC(C)C(OC2OC(C)C(OS(=O)(=O)O)C(OC3OC(C)C(OC4OC(C)C(OS(=O)(=O)O)C(OC5OC(C)C(OC6OC(C)C(OS(=O)(=O)O)C(OC7OC(C)C(OC8OC(C)C(OS(=O)(=O)O)C(OC9OC(C)C(OS(=O)(=O)O)C(OS(=O)(=O)O)C9O)C8O)C(OS(=O)(=O)O)C7O)C6O)C(OS(=O)(=O)O)C5O)C4O)C(OS(=O)(=O)O)C3O)C2O)C(OS(=O)(=O)O)C1O (stereo not shown) |  |  | human plasma | 128 µg/mL | baseline: control | thrombin time prolongation | 1 fold
Cc1ccc(N(O)/N=N/c2ccc(S(=O)(=O)Nc3nccs3)cc2)cc1 |  | DPPH scavenging, absorbance |  | 300 µg/mL |  | inhibition | 33.2%
COC1OC(C)C(OS(=O)(=O)O)C(OC2OC(C)C(OS(=O)(=O)O)C(OC3OC(C)C(OS(=O)(=O)O)C(OC4OC(C)C(OS(=O)(=O)O)C(OC5OC(C)C(OS(=O)(=O)O)C(OS(=O)(=O)O)C5O)C4O)C3O)C2O)C1O (stereo not shown) |  |  | human plasma | 128 µg/mL | baseline: control | thrombin time prolongation | 0.9 fold
C=CC(=O)Nc1cccc(Cn2ncc3cnc(Nc4cnn(CCOC)c4)nc32)c1 | NEK11 human | binding, KINOMEscan |  | 100 nM | lower = stronger binding | percent of control | 96%

Some of these lines once more:
SMILES | target or system | test | system | setting | how to read | endpoint | value
COc1ccccc1-c1ccncc1C(=O)Nc1nnc(OCc2ccc(Cl)cc2)s1 | PEO1 BRCA2-mutant ovarian cancer |  |  | 1.00 µM, with: olaparib 2 µM |  | colony survival | 0%
COc1cc(O)ccc1CCC(c1ccc(O)cc1)c1cc2c(c(C)c1O)OC(c1ccc(O)cc1)CC2 (mixture of isomers) |  |  | human blood | 3 µM, with: A23187 |  | 5-HETE level | 2520 ± 613 pg/mL
COC1OC(C)C(OC2OC(C)C(OS(=O)(=O)O)C(OC3OC(C)C(OC4OC(C)C(OS(=O)(=O)O)C(OC5OC(C)C(OC6OC(C)C(OS(=O)(=O)O)C(OC7OC(C)C(OC8OC(C)C(OS(=O)(=O)O)C(OC9OC(C)C(OS(=O)(=O)O)C(OS(=O)(=O)O)C9O)C8O)C(OS(=O)(=O)O)C7O)C6O)C(OS(=O)(=O)O)C5O)C4O)C(OS(=O)(=O)O)C3O)C2O)C(OS(=O)(=O)O)C1O (stereo not shown) |  |  | human plasma | 128 µg/mL | baseline: control | thrombin time prolongation | 1 fold
COC1OC(C)C(OS(=O)(=O)O)C(OC2OC(C)C(OS(=O)(=O)O)C(OC3OC(C)C(OS(=O)(=O)O)C(OC4OC(C)C(OS(=O)(=O)O)C(OC5OC(C)C(OS(=O)(=O)O)C(OS(=O)(=O)O)C5O)C4O)C3O)C2O)C1O (stereo not shown) |  |  | human plasma | 128 µg/mL | baseline: control | thrombin time prolongation | 0.9 fold
